Experimental data gathered from unrelated publications.
Lines come from different studies, so protocols differ. ± marks the error that the study gave. The star is where a group is joined.
Kelch domain-containing protein 2: Kelch domain-containing protein 2 (UniProt Q9Y2U9)
Chain of UniProt Q9Y2U9 (whole entry, looked up): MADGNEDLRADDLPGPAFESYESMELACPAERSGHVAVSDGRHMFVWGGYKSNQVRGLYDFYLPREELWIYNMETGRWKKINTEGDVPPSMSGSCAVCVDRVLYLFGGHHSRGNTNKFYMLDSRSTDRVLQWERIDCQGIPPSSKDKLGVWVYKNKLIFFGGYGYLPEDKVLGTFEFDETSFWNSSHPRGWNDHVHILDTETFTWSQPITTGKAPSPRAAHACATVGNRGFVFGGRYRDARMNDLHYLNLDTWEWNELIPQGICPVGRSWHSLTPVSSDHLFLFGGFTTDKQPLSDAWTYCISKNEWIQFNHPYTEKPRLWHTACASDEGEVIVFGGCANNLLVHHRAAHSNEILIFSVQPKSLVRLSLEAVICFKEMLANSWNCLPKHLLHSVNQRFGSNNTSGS
ESR2: Estrogen receptor beta (ESR2, Homo sapiens, UniProt Q92731)
Chain of UniProt Q92731 (whole entry, looked up): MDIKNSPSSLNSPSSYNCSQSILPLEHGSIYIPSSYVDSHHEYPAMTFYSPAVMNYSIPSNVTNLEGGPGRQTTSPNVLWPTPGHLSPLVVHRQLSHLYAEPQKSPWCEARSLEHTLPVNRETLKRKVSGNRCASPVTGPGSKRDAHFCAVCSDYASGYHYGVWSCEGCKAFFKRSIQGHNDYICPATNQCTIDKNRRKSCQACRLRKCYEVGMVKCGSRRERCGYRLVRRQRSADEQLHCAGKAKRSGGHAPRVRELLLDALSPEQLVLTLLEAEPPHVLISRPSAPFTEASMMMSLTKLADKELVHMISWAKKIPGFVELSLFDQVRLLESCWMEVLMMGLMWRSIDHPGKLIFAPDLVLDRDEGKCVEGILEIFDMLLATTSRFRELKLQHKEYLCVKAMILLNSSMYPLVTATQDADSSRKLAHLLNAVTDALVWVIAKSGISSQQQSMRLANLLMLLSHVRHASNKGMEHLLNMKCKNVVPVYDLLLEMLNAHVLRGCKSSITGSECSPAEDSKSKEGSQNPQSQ
CNR2: Cannabinoid receptor 2 (CNR2, Homo sapiens, UniProt P34972)
Chain of UniProt P34972 (whole entry, looked up): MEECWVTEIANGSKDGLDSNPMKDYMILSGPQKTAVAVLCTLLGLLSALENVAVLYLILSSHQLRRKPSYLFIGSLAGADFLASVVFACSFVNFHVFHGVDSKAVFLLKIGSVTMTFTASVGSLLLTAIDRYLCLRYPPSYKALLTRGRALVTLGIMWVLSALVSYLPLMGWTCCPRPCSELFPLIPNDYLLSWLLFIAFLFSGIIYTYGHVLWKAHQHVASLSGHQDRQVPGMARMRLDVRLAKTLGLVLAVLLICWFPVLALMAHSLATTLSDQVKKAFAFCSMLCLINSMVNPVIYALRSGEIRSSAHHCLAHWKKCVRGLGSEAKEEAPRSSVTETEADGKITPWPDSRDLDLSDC
Chain of UniProt P07164 (whole entry, unmodified, looked up): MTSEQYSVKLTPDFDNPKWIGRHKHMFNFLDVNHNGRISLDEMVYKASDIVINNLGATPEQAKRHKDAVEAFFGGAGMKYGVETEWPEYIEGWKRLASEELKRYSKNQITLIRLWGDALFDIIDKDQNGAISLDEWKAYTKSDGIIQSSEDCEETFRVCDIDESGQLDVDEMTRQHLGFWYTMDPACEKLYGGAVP
Chain of UniProt P69905 (whole entry, looked up): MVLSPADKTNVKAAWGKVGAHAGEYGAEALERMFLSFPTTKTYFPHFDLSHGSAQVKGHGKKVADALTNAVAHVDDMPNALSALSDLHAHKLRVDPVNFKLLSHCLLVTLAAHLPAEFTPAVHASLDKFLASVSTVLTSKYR
Chain of UniProt P43681 (whole entry, looked up): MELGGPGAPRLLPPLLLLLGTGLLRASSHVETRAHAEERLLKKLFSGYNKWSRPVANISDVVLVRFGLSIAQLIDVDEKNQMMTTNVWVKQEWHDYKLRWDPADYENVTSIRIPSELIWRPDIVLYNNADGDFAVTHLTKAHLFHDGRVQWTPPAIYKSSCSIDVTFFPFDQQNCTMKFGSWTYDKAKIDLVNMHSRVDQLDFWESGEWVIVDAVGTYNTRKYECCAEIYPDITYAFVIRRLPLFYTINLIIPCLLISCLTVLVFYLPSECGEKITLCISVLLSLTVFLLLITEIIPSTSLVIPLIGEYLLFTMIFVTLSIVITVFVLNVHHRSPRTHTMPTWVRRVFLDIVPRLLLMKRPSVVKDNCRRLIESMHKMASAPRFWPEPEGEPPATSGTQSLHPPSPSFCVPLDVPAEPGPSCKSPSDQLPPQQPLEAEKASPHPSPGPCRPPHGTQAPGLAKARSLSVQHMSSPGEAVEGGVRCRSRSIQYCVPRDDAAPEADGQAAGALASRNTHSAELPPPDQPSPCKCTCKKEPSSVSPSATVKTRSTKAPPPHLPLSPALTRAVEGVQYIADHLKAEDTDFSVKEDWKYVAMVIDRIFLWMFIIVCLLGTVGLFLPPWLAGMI
Chain of UniProt Q06520 (whole entry, looked up): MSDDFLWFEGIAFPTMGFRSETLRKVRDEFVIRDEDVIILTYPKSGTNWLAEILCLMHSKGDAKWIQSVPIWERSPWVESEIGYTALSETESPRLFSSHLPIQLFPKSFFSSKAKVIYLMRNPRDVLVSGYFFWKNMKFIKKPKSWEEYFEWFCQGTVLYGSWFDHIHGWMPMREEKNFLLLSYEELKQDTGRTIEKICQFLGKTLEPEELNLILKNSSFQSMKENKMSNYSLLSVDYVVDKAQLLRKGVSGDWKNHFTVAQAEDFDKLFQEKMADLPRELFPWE
Chain of UniProt P0AFU8 (whole entry, looked up): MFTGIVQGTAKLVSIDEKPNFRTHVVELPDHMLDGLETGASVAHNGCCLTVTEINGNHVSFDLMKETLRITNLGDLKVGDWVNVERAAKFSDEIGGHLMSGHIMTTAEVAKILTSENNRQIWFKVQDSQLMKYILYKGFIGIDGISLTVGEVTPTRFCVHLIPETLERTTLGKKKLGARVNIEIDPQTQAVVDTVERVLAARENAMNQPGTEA
Chain of UniProt P30542 (whole entry, looked up): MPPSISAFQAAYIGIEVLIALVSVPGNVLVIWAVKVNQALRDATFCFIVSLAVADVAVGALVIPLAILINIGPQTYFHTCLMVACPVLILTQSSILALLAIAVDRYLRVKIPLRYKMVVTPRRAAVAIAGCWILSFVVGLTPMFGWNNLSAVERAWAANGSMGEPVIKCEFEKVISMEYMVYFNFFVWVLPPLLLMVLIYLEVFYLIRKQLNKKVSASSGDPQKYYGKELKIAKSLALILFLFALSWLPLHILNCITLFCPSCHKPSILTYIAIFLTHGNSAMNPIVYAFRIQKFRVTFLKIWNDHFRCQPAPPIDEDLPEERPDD
Chain of UniProt P35372 (whole entry, looked up): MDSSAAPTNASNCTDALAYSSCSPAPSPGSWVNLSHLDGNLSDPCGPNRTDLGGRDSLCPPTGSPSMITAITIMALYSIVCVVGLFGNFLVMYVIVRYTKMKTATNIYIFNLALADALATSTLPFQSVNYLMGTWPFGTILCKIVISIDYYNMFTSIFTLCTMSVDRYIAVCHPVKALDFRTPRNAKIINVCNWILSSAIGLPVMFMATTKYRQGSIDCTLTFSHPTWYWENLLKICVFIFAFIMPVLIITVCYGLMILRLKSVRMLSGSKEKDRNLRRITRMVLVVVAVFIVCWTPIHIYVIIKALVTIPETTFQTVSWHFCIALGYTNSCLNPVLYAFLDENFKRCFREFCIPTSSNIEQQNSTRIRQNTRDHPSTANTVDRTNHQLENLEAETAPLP
Chain of UniProt P14902 (whole entry, looked up): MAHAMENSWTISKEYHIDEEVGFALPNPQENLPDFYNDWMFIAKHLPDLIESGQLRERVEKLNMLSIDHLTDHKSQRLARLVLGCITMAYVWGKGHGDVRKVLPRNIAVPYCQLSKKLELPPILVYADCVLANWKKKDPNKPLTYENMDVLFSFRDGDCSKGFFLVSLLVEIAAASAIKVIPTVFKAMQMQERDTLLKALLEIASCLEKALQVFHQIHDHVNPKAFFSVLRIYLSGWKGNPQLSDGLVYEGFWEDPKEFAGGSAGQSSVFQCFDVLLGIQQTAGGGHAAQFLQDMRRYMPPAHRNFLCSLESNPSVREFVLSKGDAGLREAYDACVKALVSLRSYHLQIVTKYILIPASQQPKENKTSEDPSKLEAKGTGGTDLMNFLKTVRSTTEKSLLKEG
Chain of UniProt P08235 (whole entry, looked up): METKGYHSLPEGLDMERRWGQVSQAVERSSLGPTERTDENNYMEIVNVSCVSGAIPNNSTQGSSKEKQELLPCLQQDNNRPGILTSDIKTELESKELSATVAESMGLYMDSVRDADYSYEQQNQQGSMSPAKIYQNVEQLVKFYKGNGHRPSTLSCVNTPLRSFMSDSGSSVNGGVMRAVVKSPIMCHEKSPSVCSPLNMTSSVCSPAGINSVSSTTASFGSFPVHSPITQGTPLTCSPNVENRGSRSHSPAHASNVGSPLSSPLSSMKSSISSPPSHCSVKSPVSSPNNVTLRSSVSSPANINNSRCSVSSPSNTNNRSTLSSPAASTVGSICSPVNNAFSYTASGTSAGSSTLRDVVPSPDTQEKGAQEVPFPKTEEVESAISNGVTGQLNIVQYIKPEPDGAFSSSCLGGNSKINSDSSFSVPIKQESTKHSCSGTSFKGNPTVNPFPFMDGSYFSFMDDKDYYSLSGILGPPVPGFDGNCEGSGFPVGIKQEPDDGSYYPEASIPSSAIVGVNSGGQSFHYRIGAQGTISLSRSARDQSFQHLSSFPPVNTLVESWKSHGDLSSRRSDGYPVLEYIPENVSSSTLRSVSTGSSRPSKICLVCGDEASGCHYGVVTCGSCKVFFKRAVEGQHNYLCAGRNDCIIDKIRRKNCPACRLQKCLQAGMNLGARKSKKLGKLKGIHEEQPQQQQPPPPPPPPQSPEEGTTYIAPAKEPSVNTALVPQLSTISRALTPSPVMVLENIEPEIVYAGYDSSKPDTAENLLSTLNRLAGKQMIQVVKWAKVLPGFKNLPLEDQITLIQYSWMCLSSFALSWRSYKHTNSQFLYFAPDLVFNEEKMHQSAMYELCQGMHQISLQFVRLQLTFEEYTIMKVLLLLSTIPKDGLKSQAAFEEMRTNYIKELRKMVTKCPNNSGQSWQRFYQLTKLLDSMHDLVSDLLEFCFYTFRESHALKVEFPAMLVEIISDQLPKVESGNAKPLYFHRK

Substance | target | assay | system | setting | scale | measurement | value
C=C(C)[C@@H]1CCC(C)=C[C@H]1c1c(O)cc(CCCCC)cc1O | Fatty acid-binding protein, liver (FABP1, Homo sapiens, UniProt P07148) | binding, DAUDA displacement | – | concentration not given | reference: no competitor | remaining fluorescence | 46 ± 6.1%
SHPQFEKGGGSGGG | Kelch domain-containing protein 2 | native mass spectrometry | peptide, 200 mM ammonium acetate | 20 µM Kelch domain-containing protein 2, pH 7 | reference: total Kelch domain-containing protein 2 signal | fraction of protein bound | 3.7%
C=CCOc1ccc(F)cc1[C@H]1C[C@@H]1CN.Cl | 5-hydroxytryptamine receptor 2B (HTR2B, Homo sapiens, UniProt P41595) | – | HEK293 | 10 µM | – | activity | inactive
CC(=O)OCc1ccc(C=O)o1 | Hemoglobin subunit alpha, with sickle beta chain (HBA1, Homo sapiens, UniProt P69905) | oxygen affinity | sickle red cell lysate | 2000 µM | reference: untreated | P50 change | 44.6 ± 11.9%
Cl.NCCc1ccc(S(=O)(=O)F)cc1 | Serine protease hepsin (Hpn, Mus musculus, UniProt O35453) | – | mouse cells expressing hepsin | concentration not given, 30 min, serum-free | – | pericellular protease activity | inhibited
Cc1cc(-c2ccc(-c3ccc(O)c(C)c3)[se]2)ccc1O | ESR2 | antagonist | HEK293T | highest tested concentration, 24 h, together with: estradiol 10 nM | reference: estradiol alone | efficacy | 98 ± 14%
Oc1ccc(-c2cccc(Cl)c2)cc1Cl | Sulfotransferase 2A1 (SULT2A1, Homo sapiens, UniProt Q06520) | substrate, HPLC of PAP formation | – | substrate inhibition fit, together with: PAPS 200 µM | – | Vmax | 21.4 ± 18.3 nmol/min/mg
O=C(Cc1ccc(F)cc1)NC1CCOC1=O (stereo not shown) | Transcriptional activator protein LasR (lasR, Pseudomonas aeruginosa, UniProt P25084) | reporter gene, agonist | Escherichia coli JLD271/pJN105L/pSC11 | 100 µM | reference: OdDHL 100 µM | activation | 12%
NFWELSKYLHMA | HIV-1 neutralising antibody 4E10 | phage binding, M13 phage ELISA | peptide | concentration not given | lower = stronger binding | binding titer | 1.6e+07 M13/mL
CCCCCc1cc(O)c(C/C=C(\C)CCC=C(C)C)c(O)c1 | Sodium channel protein type 9 subunit alpha (SCN9A, Homo sapiens, UniProt Q15858) | slow inactivation, automated patch clamp | – | – | reference: vehicle | lowest effective concentration | 7 µM
Oc1ccc(-c2cc(-c3ccc(O)cc3)c(-c3ccc(O)cc3)[se]2)cc1 | ESR2 | antagonist | HEK293T | highest tested concentration, 24 h, together with: estradiol 10 nM | reference: estradiol alone | efficacy | 23 ± 3%
C[C@]12CC[C@@H]3c4ccc(O)cc4CC[C@H]3[C@@H]1CC[C@@H]2O | Neuronal acetylcholine receptor subunit alpha-4, with beta2 subunit (CHRNA4, Homo sapiens, UniProt P43681) | potentiator | – | – | – | potentiating concentration | > 1 µM
O=c1[nH]c(/C=C/c2ccc([N+](=O)[O-])c(O)c2)c([N+](=O)[O-])c(=O)[nH]1 | Riboflavin synthase (ribC, Escherichia coli, UniProt P0AFU8) | enzyme activity, substrate | Escherichia coli, recombinant riboflavin synthase | pH 7.0 | – | Ks | 3 ± 0.1 µM
Oc1ccc(-c2cc(Cl)ccc2Cl)cc1 | Aequorin-1 (Aequorea victoria, UniProt P07164, C152S/C159S/C187S) | aequorin bioluminescence, inhibitor | – | 2 h, together with: coelenterazine | – | detection limit | 23 µM
Cc1cc(-c2cc(Br)c(-c3cc(C)c(O)c(C)c3)[se]2)cc(C)c1O | ESR2 | antagonist | HEK293T | highest tested concentration, 24 h, together with: estradiol 10 nM | reference: estradiol alone | efficacy | 18 ± 13%
CC[C@H](C)[C@H](NC(=O)[C@@H]1CSSC[C@@H]2NC(=O)[C@H]([C@@H](C)O)NC(=O)[C@H](C(C)C)NC(=O)CNC(=O)[C@H](CC(N)=O)NC(=O)[C@@H](NC(=O)[C@@H]3CCCN3C(=O)[C@H](CC(N)=O)NC(=O)[C@H](CC(N)=O)NC(=O)[C@H](CC(C)C)NC(=O)[C@H](Cc3ccc(O)cc3)NC(=O)[C@H](CCCCN)NC(=O)[C@H](CO)NC(=O)[C@@H](N)CC(N)=O)CSSC[C@H](NC(=O)[C@H](CCCNC(=N)N)NC(=O)[C@H](Cc3ccc(O)cc3)NC(=O)CNC(=O)[C@H](CO)NC(=O)[C@@H]3CCCN3C2=O)C(=O)N[C@@H](CO)C(=O)N[C@@H]([C@@H](C)CC)C(=O)N[C@@H](C(C)C)C(=O)N[C@@H](CC(=O)O)C(=O)N[C@@H](CCCCN)C(=O)N[C@@H](CCC(N)=O)C(=O)N1)C(=O)N[C@@H](CCCCN)C(=O)N[C@@H](CCCCN)C(=O)N[C@@H](CCC(=O)O)C(=O)O | Transient receptor potential cation channel subfamily V member 1 (Trpv1, Mus musculus, UniProt Q704Y3, E571A) | agonist, outside-out patch | – | 300 µM, after desensitisation | – | single-channel conductance | 65.8 ± 6.7 pS
O=[PH](O)O | Orotidine 5'-phosphate decarboxylase (Saccharomyces cerevisiae S288c, UniProt P03962, D37G) | decarboxylation of FO, activator | – | concentration not given, D37G variant | reference: wild type | increase in ΔG activation | < 1 kcal/mol

Substance | target | assay | system | setting | scale | measurement | value
Cc1ccc(Oc2ccc(C(=O)N[C@H](CN3CCN(c4cccc(O)c4)[C@@H](C)C3)C(C)C)cc2)cc1 | Kappa-type opioid receptor (OPRK1, Homo sapiens, UniProt P41145) | antagonist | CHO | together with: U69593 | – | Ke | 0.69 ± 0.25 nM
Ac-QDEVD-pNA (N-acetyl, C-pNA; pNA = O=[N+]([O-])c1ccc(N*)cc1) | Caspase-7 (CASP7, Homo sapiens, UniProt P55210) | substrate hydrolysis, substrate, colorimetric | – | pH 7.5 | – | kcat/Km | 20000 ± 1670 M⁻¹ s⁻¹
Oc1ccc(-c2cc(Br)c(-c3ccc(O)cc3)[se]2)cc1 | ESR2 | antagonist | HEK293T | highest tested concentration, 24 h, together with: estradiol 10 nM | reference: estradiol alone | efficacy | 75 ± 4%
CC(C)C[C@@H](C=O)NC(=O)[C@H](CC(C)C)NC(=O)[C@H](CC(C)C)NC(=O)OCc1ccccc1 | Indoleamine 2,3-dioxygenase 1 (IDO1, Homo sapiens, UniProt P14902) | inhibitor, western blot | HeLa | 1 µM, 2 h pretreatment, then 24 h, together with: IFN-γ 5 ng/mL plus degrader 5 µM | – | IDO1 degradation | inhibited
C=C1C(=O)N[C@@H](C)C(=O)N(C)[C@@H](C)C(=O)N[C@@H]([C@H](OC(=O)[C@@H](NC(=O)CC)[C@H](O)C(C)C)C(C)C)C(=O)N(C)[C@@H]([C@@H](C)OC)C(=O)O[C@H](C(C)C)[C@H](NC(C)=O)C(=O)O[C@H](Cc2ccccc2)C(=O)N1C | Adenosine receptor A1, with Gαi (ADORA1, Homo sapiens, UniProt P30542) | forskolin-stimulated cAMP accumulation, inhibitor | human cells | concentration not given, together with: NECA | – | inhibition of NECA-induced cAMP response | no effect
CC(C)[C@H](NC(=O)[C@H](CC(=O)O)NC(=O)[C@@H](NC(=O)[C@H](CCC(=O)O)NC(=O)[C@@H](NC(=O)[C@H](C)NC(=O)[C@H](CCCCN)NC(=O)[C@H](C)NC(=O)[C@H](CC(N)=O)NC(=O)[C@H](CO)NC(=O)[C@H](CS)NC(=O)[C@H](CC(N)=O)NC(=O)[C@H](CC(N)=O)NC(=O)[C@H](CCCCN)NC(=O)[C@H](CC(=O)O)NC(=O)CNC(=O)[C@H](CO)NC(=O)CNC(=O)[C@H](CO)NC(=O)CCCC[C@@H]1SC[C@@H]2NC(=O)N[C@@H]21)C(C)C)[C@@H](C)O)C(=O)O | Disks large homolog 1, PDZ1-2 domains (DLG1, Homo sapiens, UniProt Q12959) | binding, surface plasmon resonance | – | together with: immobilized Kv1.4 peptide | – | koff | 0.0135 s⁻¹
glycine | Large neutral amino acids transporter small subunit 1 (SLC7A5, Homo sapiens, UniProt Q01650) | substrate, trans-stimulation | HEK293 expressing human LAT1 | 200 µM, 3 min | reference: L-phenylalanine | efflux of [3H]-gabapentin | 29%
Ac-RYRHPTGMYY-NH2 (N-acetyl, C-amide) | Serine/threonine-protein kinase pim-1 (PIM1, Homo sapiens, UniProt P11309) | substrate, coupled enzyme | peptide | pH 7.4, room temperature, together with: 1 mM ATP, 20 mM MgCl2 | – | kcat | 14 ± 1 s⁻¹
NC(=O)[C@@H]1CCCN1C(=O)C1(NC(=O)c2nn(Cc3ccc(F)cc3)c3ccccc23)CC1 | CNR2 | calcium mobilization, agonist | CHO-K1 expressing Gαq16 | – | reference: CP55,940 maximum | Emax | 46 ± 6%
Nc1nnc(S)s1 | Peptide deformylase (def, Escherichia coli, UniProt P0A6K3) | – | – | 500 µM, over 2 days, stock in acetonitrile | reference: control | remaining activity | 96%
CC(C)C[C@H](NC(=O)[C@@H](NC(=O)N[C@H](C(=O)O)C(C)C)[C@@H]1CCNC(=N)N1)C(=O)NCCCN[C@H](C(=O)O)[C@H](O[C@@H]1O[C@H](CN)[C@@H](O)[C@H]1O)[C@H]1O[C@@H](n2ccc(=O)[nH]c2=O)[C@H](O)[C@@H]1O | Phospho-N-acetylmuramoyl-pentapeptide-transferase (mraY, Aquifex aeolicus, UniProt O66465) | enzyme activity, inhibitor, fluorescence | – | – | reference: Aquifex aeolicus over Staphylococcus aureus | IC50 ratio | ~120 fold
SSAIGPYKGG | Kelch domain-containing protein 2 | native mass spectrometry | peptide, 200 mM ammonium acetate | 20 µM Kelch domain-containing protein 2, pH 7 | reference: total Kelch domain-containing protein 2 signal | fraction of protein bound | 0.8%
C[C@](O)(Cn1ccc2cc(F)ccc21)C(=O)Nc1ccc(C#N)c(C(F)(F)F)c1 | Mineralocorticoid receptor (NR3C2, Homo sapiens, UniProt P08235) | transactivation, antagonist | HEK293 | together with: aldosterone | – | IC50? | ~10 µM
NC(=O)CN1CCC[C@H](CNC(=O)c2nn(Cc3ccc(F)cc3)c3ccccc23)C1 | CNR2 | calcium mobilization, agonist | CHO-K1 expressing Gαq16 | – | reference: CP55,940 maximum | Emax | 36 ± 5%
C/C(=C\c1csc(C)n1)[C@@H]1C[C@@H]2O[C@]2(C)CCC[C@H](C)[C@H](O)[C@@H](C)C(=O)C(C)(C)[C@@H](O)CC(=O)O1 | microtubules (bovine, glutaraldehyde-fixed) | competitor | – | 25 µM, together with: [3H]paclitaxel 2.5 µM | – | [3H]paclitaxel bound per tubulin | 0.16 ± 0.043
CC(C)[C@@H](CN1CCN(c2cccc(O)c2)[C@@H](C)C1)NC(=O)c1ccc(Oc2ccccc2O)cc1 | Mu-type opioid receptor (OPRM1, Homo sapiens, UniProt P35372) | antagonist | CHO | together with: DAMGO | – | Ke | 125 ± 10 nM
Nc1ncnc2c1ncn2[C@H]1C[C@H](O)[C@@H](COP(=O)(O)OP(=O)(O)OP(=O)(O)O)O1 | matB (Rhodopseudomonas palustris, UniProt Q6ND88, C106A/K488A/Q457C/R286C) | nucleotide binding | – | 0.5 µM protein, pH 7.0, 20 °C, 10 mM MgCl2 | reference: saturating ligand over no ligand | fluorescence ratio | 3.8 ± 0.2

For quick reference, copied from above:
Substance | target | assay | system | setting | scale | measurement | value
Nc1nnc(S)s1 | Peptide deformylase (def, Escherichia coli, UniProt P0A6K3) | – | – | 500 µM, over 2 days, stock in acetonitrile | reference: control | remaining activity | 96%
CC(C)C[C@H](NC(=O)[C@@H](NC(=O)N[C@H](C(=O)O)C(C)C)[C@@H]1CCNC(=N)N1)C(=O)NCCCN[C@H](C(=O)O)[C@H](O[C@@H]1O[C@H](CN)[C@@H](O)[C@H]1O)[C@H]1O[C@@H](n2ccc(=O)[nH]c2=O)[C@H](O)[C@@H]1O | Phospho-N-acetylmuramoyl-pentapeptide-transferase (mraY, Aquifex aeolicus, UniProt O66465) | enzyme activity, inhibitor, fluorescence | – | – | reference: Aquifex aeolicus over Staphylococcus aureus | IC50 ratio | ~120 fold
SSAIGPYKGG | Kelch domain-containing protein 2 | native mass spectrometry | peptide, 200 mM ammonium acetate | 20 µM Kelch domain-containing protein 2, pH 7 | reference: total Kelch domain-containing protein 2 signal | fraction of protein bound | 0.8%
C[C@](O)(Cn1ccc2cc(F)ccc21)C(=O)Nc1ccc(C#N)c(C(F)(F)F)c1 | Mineralocorticoid receptor (NR3C2, Homo sapiens, UniProt P08235) | transactivation, antagonist | HEK293 | together with: aldosterone | – | IC50? | ~10 µM
